{"data": "Experimental data gathered from unrelated publications", "note": "Numbered parts are unrelated; each lists some results of a single study."}
{"data": "Sample 1", "target": "Histone acetyltransferase KAT6A, both winged helices, GST fusion (KAT6A, Homo sapiens, UniProt Q92794, residues 1-181)", "technique": "protein binding microarray", "molecule type": "double-stranded DNA, one strand shown", "medium": "in vitro", "concentration": "not given", "notes": "8-mer, flanks averaged, mean of 2 arrays, mostly near background", "relative to": "not given", "direction": "higher = stronger binding", "Construct (chain)": "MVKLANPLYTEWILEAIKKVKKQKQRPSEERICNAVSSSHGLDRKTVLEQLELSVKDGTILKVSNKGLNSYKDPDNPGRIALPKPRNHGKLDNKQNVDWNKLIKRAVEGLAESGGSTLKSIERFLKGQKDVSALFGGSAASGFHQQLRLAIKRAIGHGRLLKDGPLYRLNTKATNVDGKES"}
{"Strand": "ATTGAATG", "E-score": -0.119}
{"Strand": "AGTGCAAA", "E-score": -0.0937}
{"Strand": "CGGTGCCC", "E-score": 0.137}
{"Strand": "ATTTACTC", "E-score": 0.00181}
{"Strand": "GTCCACAC", "E-score": 0.049}
{"Strand": "TCCAGTCA", "E-score": -0.0253}
{"Strand": "CAAATGCG", "E-score": 0.0776}
{"Strand": "CACGTCGG", "E-score": 0.137}
{"data": "Sample 2", "target": "Prothrombin, mature alpha-thrombin (F2, Homo sapiens, UniProt P00734)", "technique": "aptamer microarray, sandwich", "molecule type": "DNA with 2'F-ANA", "medium": "in vitro", "concentration": "200 nM", "notes": "whole 15-mer aptamer, many near background", "added": "Cy3 exosite-II aptamer, 400 nM", "direction": "higher = stronger binding", "strand": "GGTTGGTGTGGTTGG"}
{"Modification": "2'F-ANA at 1 4 6 7 9 10 13 14 15", "mean fluorescence intensity": "54.4 a.u."}
{"Modification": "2'F-ANA at 1 4 5 8 9 10 11 12 13 14 15", "mean fluorescence intensity": "158 a.u."}
{"Modification": "2'F-ANA at 1 3 4 5 6 7 8 9 11 12 13 14", "mean fluorescence intensity": "44.6 a.u."}
{"Modification": "2'F-ANA at 2 3 4 5 6 7 8 11 12 13 14 15", "mean fluorescence intensity": "54.8 a.u."}
{"Modification": "2'F-ANA at 1 2 5 6 8 9 10 11 12 14 15", "mean fluorescence intensity": "47.9 a.u."}
{"Modification": "2'F-ANA at 6 7 10 11 13 15", "mean fluorescence intensity": "172 a.u."}
{"Modification": "2'F-ANA at 3 6 9 14", "mean fluorescence intensity": "549 a.u."}
{"Modification": "2'F-ANA at 4 8 13 15", "mean fluorescence intensity": "268 a.u."}
{"Modification": "2'F-ANA at 6 8 10 11", "mean fluorescence intensity": "174 a.u."}
{"data": "Sample 3", "target": "RING finger protein unkempt homolog, zinc fingers 1-6, GST-SBP tag (UNK, Homo sapiens, UniProt Q9C0B0, residues 30-357)", "technique": "RNA Bind-n-Seq", "molecule type": "RNA", "medium": "in vitro", "concentration": "not given", "notes": "RNA with constant flanks, ends assumed", "relative to": "input RNA pool", "direction": "higher = stronger binding", "shared flanks, not repeated": "GGGAGUUCUACAGUCCGACGAUC … CAACAGAGGAUUGAGCAUCA", "Construct (chain)": "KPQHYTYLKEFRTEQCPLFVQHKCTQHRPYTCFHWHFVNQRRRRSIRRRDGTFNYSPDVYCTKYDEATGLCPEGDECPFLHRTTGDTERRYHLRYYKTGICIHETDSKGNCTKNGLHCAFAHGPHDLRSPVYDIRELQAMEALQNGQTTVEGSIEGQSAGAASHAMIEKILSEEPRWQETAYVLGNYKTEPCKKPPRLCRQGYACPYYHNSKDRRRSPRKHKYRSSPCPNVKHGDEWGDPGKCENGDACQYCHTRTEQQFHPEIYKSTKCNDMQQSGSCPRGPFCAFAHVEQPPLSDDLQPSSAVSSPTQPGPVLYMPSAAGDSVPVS"}
{"Strand": "GGCCUGACAAAUUAUGCUGCAGCCUAUUGCACUGGCCUGCUGCUGGCCCGCAGGCUUCUGAACCGGUUUGGCAUGGACAAGAUCUAUGAAGGCCAAGUGGAGGUGAAUGGAGGUGAAUAC", "bound/input enrichment": "0.238 ratio"}
{"Strand": "ACCAGCACAUUUUCUGAAUACACAGUUGUGGCUGAUAUCUCUGUUGCUAAAAUAGAUCCUUCCGCACCUUUGGAUAAAGUCUGCCUUCUAGGUUGUGGCAUUUCAACCGGUUAUGGUGCU", "bound/input enrichment": "0.902 ratio"}
{"Strand": "AAGACAUACGGGGAGCCUGAGUCUGUGGGCAUGUCCAAGAGCUUCCGCCAGCCGGGGACCUCACUUGCCGAUGCUGAUACCUUCCAUCACCAGGUGCGUGAUGACAUUUUCUCUUCUUUA", "bound/input enrichment": "0.14 ratio"}
{"Strand": "GAUUAUACAAUUCCCGAUGAGUAUAGAAUCGGACCAUAUCAGCCUAAUGUUCCUGUUGGUACCGACUAUGUGAUACCUAAAACAGGGUUUUACUGUAAGCUGUGUUCACUCUUUUAUACA", "bound/input enrichment": "0.0777 ratio"}
{"Strand": "GAGAAUUUAAAUUGAUUCUCAGUUCUGUCAUCAUUAGUUUCUUUUACAUUAAUAUGUCCACCGUUUGCAUGUUCCCUGGACAGCUUUGUCUUAAUUUCCAUGAGUAGAACUGUGACUUCU", "bound/input enrichment": "32.8 ratio"}
{"Strand": "AUAAAAUAAAAAUAAAAUAAAACAGAAAUAUUACUCUUCCAUAUUCCUUCUGGCUAUAUUCCGUAAUUAAUUUAUUUUAUGGUAAAGUUCUAAUGACAUGUAAAUUGUUUCAGCAAAGCU", "bound/input enrichment": "0.696 ratio"}
{"Strand": "UAUGUGCCCAAUGUUCCAGAAGGAUCUGUGAGAAUCAUAGACCAGUCAAGCAAUGUGGAGACCGCAUCUUUUCCAAUUUAUAAAGUGCUUUUCUGUGCACGUGGGCAUGAUGGGACAGCC", "bound/input enrichment": "0.363 ratio"}
{"data": "Mixed results"}
{"Molecule": "PhoQ, residues 284 288 289 292 302 303 TNSAEL", "target": "PhoP, residues 12 14 15 18 19 LQHIR (Escherichia coli, UniProt P23836)", "test": "Sort-seq, item: YFP reporter", "test system": "E. coli", "setting": "PhoQ-PhoP variant library, added: 10 µM Mg2+", "how to read": "relative to: high Mg2+ state, higher = stronger signaling", "quantity": "fold induction", "result": 1.78}
{"note": "A few entries again (sample 1):"}
{"Strand": "GTCCACAC", "E-score": 0.049}
{"Strand": "ATTGAATG", "E-score": -0.119}
{"Strand": "CAAATGCG", "E-score": 0.0776}
{"Strand": "ATTTACTC", "E-score": 0.00181}
